Published values pooled from the literature.
Lines come from different studies, so protocols differ. ± gives the spread as reported.

Compound | test | system | setting | half-life
O=[N][Fe]1([N]=O)[S](CCO)[Fe]([N]=O)([N]=O)[S]1CCO | degradation | simulated gastric fluid | pH 1.2, 37 °C | 0.4 ± 0.1 h
CCC(CC)[C@H](NC(C)=O)[C@@H]1[C@H](O)[C@@H](C(=O)N[C@H](C(=O)O)[C@@H](C)CC)C[C@H]1NC(=N)N |  | phosphate buffer | pH 6.8, 37 °C, chemical stability | 33.1 ± 0.5 h
CC(C)(C)c1nc(-c2ccc(NC(=O)c3cccs3)cc2Cl)no1 | chemical stability | buffer | 5 µM, pH 10.0, 37 °C | 0.572 ± 0.122 h
CC(C)[C@@H]1NC(=O)[C@@H](NC(=O)[C@H](Cc2ccc(O)cc2)NC(=O)[C@@H]2CCCN2C(=O)[C@H](C)N)CSSC[C@@H](C(=O)O)NC(=O)[C@H](CO)NC(=O)[C@H](Cc2c[nH]c3ccccc23)NC(=O)[C@H](CO)NC(=O)CNC(=O)[C@H](CCCNC(=N)N)NC(=O)[C@H](Cc2ccc(O)cc2)NC1=O | residual EphA4 binding inhibition | PC-3 conditioned medium | 200 µM, 37 °C | 8 to 12 h
COc1cc(C)c(Cc2ccc(O)cc2)cc1[C@@H]1S[C@H](CO)[C@@H](O)[C@H](O)[C@H]1O |  | Japanese T2DM patients, plasma | 5 mg luseogliflozin, day 1, once daily | 19.5 ± 4.41 h
O=C(Nc1ccc(-c2noc(C3CC3)n2)c(Cl)c1)c1cccs1 | plasma stability | human plasma | 5 µM, 37 °C | > 2 h
[2H]C1([2H])CC[C@@H](C[C@@H](C#N)NC(=O)[C@@H]2[C@@H]3[C@H](CN2C(=O)[C@@H](NC(=O)C(F)F)C(C)(C)C)C3(C)C)C(=O)N1 |  | mouse liver microsomes | microsomes 0.5 mg/mL | 0.362 h
CCC(CC)O[C@@H]1C=C(C(=O)OC(OC(=O)[C@@H](N)C(C)C)C(C)C)C[C@H](NC(=N)N)[C@H]1NC(C)=O (single isomer, unassigned) |  | acetate buffer with pancreatin | pH 4.5 | stable

A few entries again:
Compound | test | system | setting | half-life
CC(C)[C@@H]1NC(=O)[C@@H](NC(=O)[C@H](Cc2ccc(O)cc2)NC(=O)[C@@H]2CCCN2C(=O)[C@H](C)N)CSSC[C@@H](C(=O)O)NC(=O)[C@H](CO)NC(=O)[C@H](Cc2c[nH]c3ccccc23)NC(=O)[C@H](CO)NC(=O)CNC(=O)[C@H](CCCNC(=N)N)NC(=O)[C@H](Cc2ccc(O)cc2)NC1=O | residual EphA4 binding inhibition | PC-3 conditioned medium | 200 µM, 37 °C | 8 to 12 h
